# Published values of several laboratories.
# Protocols differ between the studies behind these lines.
# Organism: Streptococcus pneumoniae
SMILES,test,test system,setting,MIC
Oc1c(Br)cc(Br)c2nc3cc(Cl)ccc3nc12,broth microdilution,6303,"16 h, 37 °C",0.3 µM
CC[C@H](C)[C@H](NC(=O)[C@H](CCCCN)NC(=O)[C@H](CCCCN)NC(=O)[C@H](Cc1ccccc1)NC(=O)[C@H](Cc1ccccc1)NC(=O)[C@H](CCCCN)NC(=O)[C@H](CCCCN)NC(=O)[C@H](Cc1ccccc1)NC(=O)[C@H](CCCNC(=N)N)NC(=O)[C@@H](N)CCCCN)C(=O)N[C@@H](CCCCN)C(=O)N[C@@H](CCCCN)C(=O)N[C@@H](CO)C(=O)N[C@H](C(=O)N[C@@H](CCCCN)C(=O)N[C@@H](CCCCN)C(=O)N[C@@H](CCCNC(=N)N)C(=O)N[C@H](C(=O)N[C@@H](CCCCN)C(=O)N[C@@H](CCCCN)C(=O)N[C@@H](CC(C)C)C(=O)N[C@@H](Cc1ccccc1)C(=O)N[C@@H](CCCCN)C(=O)N[C@@H](CCCCN)C(=O)N1CCC[C@H]1C(=O)N[C@@H](CCCNC(=N)N)C(=O)N[C@H](C(=O)N[C@H](C(=O)N1CCC[C@H]1C(=O)N[C@H](C(=O)N[C@@H](CO)C(=O)N[C@H](C(=O)N1CCC[C@H]1C(=O)N[C@@H](Cc1ccccc1)C(=O)O)[C@@H](C)CC)[C@@H](C)CC)[C@@H](C)CC)C(C)C)C(C)C)C(C)C,broth microdilution,"ATCC 49619, THY broth","20 h, 37 °C, 5% CO2",16 µg/mL
c1ccc(CCNC2CCCc3c2[nH]c2ccc(C4CCCCC4)cc32)cc1 (centres unmarked),broth microdilution,"serotype 4, supplemented C+Y medium",,1.3 µg/mL
CC[C@H](C)[C@@H]1NC(=O)[C@H](CO)NC(=O)[C@H](CCCCN)NC(=O)[C@@H]2CSSC[C@@H](C(=O)N[C@@H](Cc3ccc(O)cc3)C(N)=O)NC(=O)[C@H](CCCCN)NC(=O)[C@@H]3CSSC[C@H](NC(=O)[C@H](CCCNC(=N)N)NC(=O)[C@H](CC(C)C)NC(=O)[C@H](CC(=O)O)NC(=O)[C@H](CC(=O)O)NC(=O)[C@H](CCC(=O)O)NC(=O)[C@H](CC(N)=O)NC(=O)[C@H](Cc4c[nH]c5ccccc45)NC(=O)C(C)(CC)NC(=O)CNC(=O)[C@H](CC(N)=O)NC(=O)[C@@H](NC(=O)CNC(=O)[C@H](Cc4ccccc4)NC(=O)CN)CSSC[C@H](NC(=O)[C@H](Cc4ccc(O)cc4)NC(=O)CNC(=O)CNC(=O)[C@H](CCCCN)NC(=O)[C@H](Cc4ccc(O)cc4)NC(=O)[C@H]4CCCN4C(=O)[C@@H]4CCCN4C1=O)C(=O)N[C@@H](C)C(=O)N[C@@H](CCCCN)C(=O)N1CCC[C@@H]1C(=O)NCC(=O)N[C@@H](Cc1ccccc1)C(=O)N[C@@H](C(C)C)C(=O)N3)C(=O)N[C@@H](Cc1c[nH]cn1)C(=O)N[C@@H](CC(N)=O)C(=O)N[C@@H](Cc1c[nH]cn1)C(=O)N2 (some centres unmarked),broth microdilution,19F,18 h,0.5 µM
CN[C@@H]1[C@H](O)[C@H](NC)[C@H]2O[C@]3(O)[C@H](O[C@@H]2[C@H]1O)O[C@H](C)C[C@H]3NC(=O)Cc1ccccc1,"microbial growth, broth dilution",DAW27,,100 µg/mL
c1ccc2c(c1)nc(CNCC13CC4CC(CC(C4)C1)C3)n2CC1CCCC1,,ATCC 49619,,2 µg/mL
CC[C@H](C)[C@@H]1NC(=O)[C@H](CC(C)C)NC(=O)[C@@H](NC(=O)[C@H](CCC(N)=O)NC(=O)[C@H](CCCCN)NC(=O)[C@H](CC(N)=O)NC(=O)[C@H](Cc2ccc(O)cc2)NC(=O)[C@@H]2CCC(=O)NCC(=O)NCC(=O)NCC(=O)NCC(=O)N[C@@H](CCCNC(=N)N)C(=O)NCC(=O)N[C@@H](Cc3ccc(O)cc3)C(=O)N2)CSSC[C@@H](C(=O)O)NC(=O)[C@H](Cc2ccccc2)NC1=O,broth microdilution,"ATCC 49619, penicillin intermediate","overnight, 37 °C",> 128 µg/mL
CC[C@H](C)[C@@H]1NC(=O)[C@H](CO)NC(=O)C(C)(CCCCN)NC(=O)[C@@H]2CSSC[C@@H](C(=O)N[C@@H](Cc3ccc(O)cc3)C(N)=O)NC(=O)[C@H](CCCCN)NC(=O)[C@@H]3CSSC[C@H](NC(=O)[C@H](CCCNC(=N)N)NC(=O)C(C)(CC(C)C)NC(=O)[C@H](CC(=O)O)NC(=O)[C@H](CC(=O)O)NC(=O)[C@H](CCC(=O)O)NC(=O)[C@H](CC(N)=O)NC(=O)[C@H](Cc4c[nH]c5ccccc45)NC(=O)C(C)(CC)NC(=O)CNC(=O)[C@H](CC(N)=O)NC(=O)[C@@H](NC(=O)CNC(=O)[C@H](Cc4ccccc4)NC(=O)CN)CSSC[C@H](NC(=O)[C@H](Cc4ccc(O)cc4)NC(=O)CNC(=O)CNC(=O)[C@H](CCCCN)NC(=O)[C@H](Cc4ccc(O)cc4)NC(=O)[C@H]4CCCN4C(=O)[C@@H]4CCCN4C1=O)C(=O)N[C@@H](C)C(=O)N[C@@H](CCCCN)C(=O)N1CCC[C@@H]1C(=O)NCC(=O)N[C@@H](Cc1ccccc1)C(=O)N[C@@H](C(C)C)C(=O)N3)C(=O)N[C@@H](Cc1c[nH]cn1)C(=O)NC(C)(C)C(=O)N[C@@H](Cc1c[nH]cn1)C(=O)N2 (some centres unmarked),broth microdilution,D39,18 h,2 µM
Oc1c(Br)cc(Br)c2nc3cc(C(F)(F)F)ccc3nc12,broth microdilution,6303,,0.04 µM
CN[C@@H]1[C@H](O)[C@H](NC)[C@H]2O[C@]3(O)[C@H](O[C@@H]2[C@H]1O)O[C@H](C)C[C@H]3NC(=O)Cc1ccc(Cl)cn1,"microbial growth, broth dilution",DAW27,,25 µg/mL
CC[C@H](C)[C@@H]1NC(=O)[C@H](CO)NC(=O)C(C)(CCCCN)NC(=O)[C@@H]2CSSC[C@@H](C(=O)N[C@@H](Cc3ccc(O)cc3)C(N)=O)NC(=O)[C@H](CCCCN)NC(=O)[C@@H]3CSSC[C@H](NC(=O)[C@H](CCCNC(=N)N)NC(=O)C(C)(CC(C)C)NC(=O)[C@H](CC(=O)O)NC(=O)[C@H](CC(=O)O)NC(=O)[C@H](CCC(=O)O)NC(=O)[C@H](CC(N)=O)NC(=O)[C@H](Cc4c[nH]c5ccccc45)NC(=O)[C@@H]4CCCN4C(=O)CNC(=O)[C@H](CC(N)=O)NC(=O)[C@@H](NC(=O)CNC(=O)[C@H](Cc4ccccc4)NC(=O)CN)CSSC[C@H](NC(=O)[C@H](Cc4ccc(O)cc4)NC(=O)CNC(=O)CNC(=O)[C@H](CCCCN)NC(=O)[C@H](Cc4ccc(O)cc4)NC(=O)CNC(=O)[C@H](CCCCN)NC1=O)C(=O)N[C@@H](C)C(=O)N[C@@H](CCCCN)C(=O)NCC(=O)NCC(=O)N[C@@H](Cc1ccccc1)C(=O)N[C@@H](C(C)C)C(=O)N3)C(=O)N[C@@H](Cc1c[nH]cn1)C(=O)NC(C)(C)C(=O)N[C@@H](Cc1c[nH]cn1)C(=O)N2 (some centres unmarked),broth microdilution,D39,18 h,0.13 µM

# A few entries again:
SMILES,test,test system,setting,MIC
Oc1c(Br)cc(Br)c2nc3cc(C(F)(F)F)ccc3nc12,broth microdilution,6303,,0.04 µM
